{"sequences": {"note": "By UniProt entry, the sequences of proteins in these tests, tags left out. Residues count along the entry.", "UniProt Q99797, 36-713 limits assumed": "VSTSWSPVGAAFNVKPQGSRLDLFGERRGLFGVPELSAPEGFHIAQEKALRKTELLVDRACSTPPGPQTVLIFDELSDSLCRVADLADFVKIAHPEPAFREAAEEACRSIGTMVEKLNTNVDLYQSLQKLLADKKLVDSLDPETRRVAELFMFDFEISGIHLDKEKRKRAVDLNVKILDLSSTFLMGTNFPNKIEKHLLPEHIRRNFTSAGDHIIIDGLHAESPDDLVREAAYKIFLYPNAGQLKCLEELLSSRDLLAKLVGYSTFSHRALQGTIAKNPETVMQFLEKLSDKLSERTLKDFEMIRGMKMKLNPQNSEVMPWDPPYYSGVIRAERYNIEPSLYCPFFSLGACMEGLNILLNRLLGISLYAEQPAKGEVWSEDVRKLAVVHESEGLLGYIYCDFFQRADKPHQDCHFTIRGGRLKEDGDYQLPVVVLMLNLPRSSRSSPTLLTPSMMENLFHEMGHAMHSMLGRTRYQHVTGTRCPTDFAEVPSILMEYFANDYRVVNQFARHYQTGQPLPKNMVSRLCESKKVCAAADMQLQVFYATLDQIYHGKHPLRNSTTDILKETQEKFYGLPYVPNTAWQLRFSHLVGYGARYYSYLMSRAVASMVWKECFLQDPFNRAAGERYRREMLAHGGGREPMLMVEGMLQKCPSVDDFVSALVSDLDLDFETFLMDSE", "UniProt Q9UDY8, whole entry": "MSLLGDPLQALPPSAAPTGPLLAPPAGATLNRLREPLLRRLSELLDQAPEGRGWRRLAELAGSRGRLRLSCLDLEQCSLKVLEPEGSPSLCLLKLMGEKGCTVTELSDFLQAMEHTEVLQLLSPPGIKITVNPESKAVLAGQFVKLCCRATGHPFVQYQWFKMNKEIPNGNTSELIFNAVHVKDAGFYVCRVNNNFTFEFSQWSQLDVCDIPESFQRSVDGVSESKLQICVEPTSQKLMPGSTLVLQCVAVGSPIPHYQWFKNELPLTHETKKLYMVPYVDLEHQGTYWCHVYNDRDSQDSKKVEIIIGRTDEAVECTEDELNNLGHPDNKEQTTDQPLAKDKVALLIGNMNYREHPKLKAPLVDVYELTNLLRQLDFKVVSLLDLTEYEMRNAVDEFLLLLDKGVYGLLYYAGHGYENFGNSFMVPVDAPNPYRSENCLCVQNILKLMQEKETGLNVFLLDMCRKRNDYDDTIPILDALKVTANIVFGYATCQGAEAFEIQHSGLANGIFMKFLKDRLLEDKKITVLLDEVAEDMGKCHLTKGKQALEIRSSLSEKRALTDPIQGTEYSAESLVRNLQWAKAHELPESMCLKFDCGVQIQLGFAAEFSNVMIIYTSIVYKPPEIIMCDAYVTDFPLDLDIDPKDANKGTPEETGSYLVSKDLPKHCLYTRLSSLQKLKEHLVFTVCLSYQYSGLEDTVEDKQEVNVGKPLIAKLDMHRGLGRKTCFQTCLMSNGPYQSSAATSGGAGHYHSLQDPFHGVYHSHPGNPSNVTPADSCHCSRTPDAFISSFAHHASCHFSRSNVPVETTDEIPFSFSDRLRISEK", "UniProt Q9UDY8, 329-566 limits assumed": "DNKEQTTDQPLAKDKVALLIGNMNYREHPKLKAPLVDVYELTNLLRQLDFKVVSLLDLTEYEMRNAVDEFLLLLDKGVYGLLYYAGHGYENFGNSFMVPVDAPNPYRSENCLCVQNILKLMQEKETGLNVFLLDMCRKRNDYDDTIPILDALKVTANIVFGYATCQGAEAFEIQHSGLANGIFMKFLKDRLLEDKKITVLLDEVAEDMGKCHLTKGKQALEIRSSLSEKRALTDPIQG", "UniProt P51452, 28-179 limits assumed": "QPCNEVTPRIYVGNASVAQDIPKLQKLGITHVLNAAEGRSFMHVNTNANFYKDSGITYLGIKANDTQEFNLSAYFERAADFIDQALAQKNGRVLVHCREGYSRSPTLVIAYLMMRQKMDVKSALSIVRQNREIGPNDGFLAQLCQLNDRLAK", "UniProt Q96EB6, whole entry": "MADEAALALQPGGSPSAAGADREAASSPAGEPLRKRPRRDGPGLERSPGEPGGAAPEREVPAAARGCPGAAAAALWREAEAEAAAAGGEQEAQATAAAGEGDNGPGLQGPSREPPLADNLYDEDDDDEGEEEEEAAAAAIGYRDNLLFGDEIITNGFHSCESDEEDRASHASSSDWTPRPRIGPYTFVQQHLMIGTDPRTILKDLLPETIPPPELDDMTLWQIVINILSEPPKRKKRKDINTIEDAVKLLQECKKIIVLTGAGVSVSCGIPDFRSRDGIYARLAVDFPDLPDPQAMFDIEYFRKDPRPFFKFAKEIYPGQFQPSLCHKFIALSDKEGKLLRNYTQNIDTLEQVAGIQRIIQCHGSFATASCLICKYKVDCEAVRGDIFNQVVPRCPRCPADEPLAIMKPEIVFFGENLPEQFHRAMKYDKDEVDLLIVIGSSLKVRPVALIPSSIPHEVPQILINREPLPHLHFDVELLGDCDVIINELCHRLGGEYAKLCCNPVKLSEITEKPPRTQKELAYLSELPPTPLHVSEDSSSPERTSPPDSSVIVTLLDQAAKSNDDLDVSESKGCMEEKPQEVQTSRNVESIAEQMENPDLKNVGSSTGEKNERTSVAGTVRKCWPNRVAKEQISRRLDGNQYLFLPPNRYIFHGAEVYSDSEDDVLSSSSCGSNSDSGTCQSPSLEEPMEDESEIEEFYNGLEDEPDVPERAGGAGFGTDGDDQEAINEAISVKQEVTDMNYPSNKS", "UniProt Q9UBN7, whole entry": "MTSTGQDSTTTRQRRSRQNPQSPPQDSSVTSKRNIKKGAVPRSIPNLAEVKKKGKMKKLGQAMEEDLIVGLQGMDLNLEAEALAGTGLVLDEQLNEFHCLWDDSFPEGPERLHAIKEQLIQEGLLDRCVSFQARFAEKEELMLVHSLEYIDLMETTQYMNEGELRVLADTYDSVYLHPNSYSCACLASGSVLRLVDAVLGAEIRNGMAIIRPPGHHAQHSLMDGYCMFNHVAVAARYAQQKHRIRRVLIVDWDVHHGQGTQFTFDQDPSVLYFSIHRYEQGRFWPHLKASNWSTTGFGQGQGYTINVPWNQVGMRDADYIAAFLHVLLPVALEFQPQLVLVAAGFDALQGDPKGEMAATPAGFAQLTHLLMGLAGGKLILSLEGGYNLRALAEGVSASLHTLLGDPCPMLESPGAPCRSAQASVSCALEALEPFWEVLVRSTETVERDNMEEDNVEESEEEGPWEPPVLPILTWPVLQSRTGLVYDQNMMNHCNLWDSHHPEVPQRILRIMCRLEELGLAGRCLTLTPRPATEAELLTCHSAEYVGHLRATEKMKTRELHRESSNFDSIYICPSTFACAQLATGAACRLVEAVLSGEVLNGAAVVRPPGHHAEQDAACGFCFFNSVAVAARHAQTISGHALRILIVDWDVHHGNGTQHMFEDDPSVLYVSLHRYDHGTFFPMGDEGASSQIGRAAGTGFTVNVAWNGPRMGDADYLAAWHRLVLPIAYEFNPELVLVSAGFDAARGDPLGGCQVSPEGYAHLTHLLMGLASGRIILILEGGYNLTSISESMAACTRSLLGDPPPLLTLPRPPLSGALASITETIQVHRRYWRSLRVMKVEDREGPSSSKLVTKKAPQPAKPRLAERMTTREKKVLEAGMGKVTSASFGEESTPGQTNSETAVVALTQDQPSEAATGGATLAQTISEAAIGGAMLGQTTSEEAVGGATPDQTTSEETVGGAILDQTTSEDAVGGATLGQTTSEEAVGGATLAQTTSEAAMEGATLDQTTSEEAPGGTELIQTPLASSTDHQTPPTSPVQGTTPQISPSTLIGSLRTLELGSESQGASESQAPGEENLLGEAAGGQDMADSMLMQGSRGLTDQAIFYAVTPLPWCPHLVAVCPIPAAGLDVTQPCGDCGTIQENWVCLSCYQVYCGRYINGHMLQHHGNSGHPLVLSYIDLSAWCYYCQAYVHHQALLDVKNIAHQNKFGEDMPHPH", "UniProt O60502, whole entry": "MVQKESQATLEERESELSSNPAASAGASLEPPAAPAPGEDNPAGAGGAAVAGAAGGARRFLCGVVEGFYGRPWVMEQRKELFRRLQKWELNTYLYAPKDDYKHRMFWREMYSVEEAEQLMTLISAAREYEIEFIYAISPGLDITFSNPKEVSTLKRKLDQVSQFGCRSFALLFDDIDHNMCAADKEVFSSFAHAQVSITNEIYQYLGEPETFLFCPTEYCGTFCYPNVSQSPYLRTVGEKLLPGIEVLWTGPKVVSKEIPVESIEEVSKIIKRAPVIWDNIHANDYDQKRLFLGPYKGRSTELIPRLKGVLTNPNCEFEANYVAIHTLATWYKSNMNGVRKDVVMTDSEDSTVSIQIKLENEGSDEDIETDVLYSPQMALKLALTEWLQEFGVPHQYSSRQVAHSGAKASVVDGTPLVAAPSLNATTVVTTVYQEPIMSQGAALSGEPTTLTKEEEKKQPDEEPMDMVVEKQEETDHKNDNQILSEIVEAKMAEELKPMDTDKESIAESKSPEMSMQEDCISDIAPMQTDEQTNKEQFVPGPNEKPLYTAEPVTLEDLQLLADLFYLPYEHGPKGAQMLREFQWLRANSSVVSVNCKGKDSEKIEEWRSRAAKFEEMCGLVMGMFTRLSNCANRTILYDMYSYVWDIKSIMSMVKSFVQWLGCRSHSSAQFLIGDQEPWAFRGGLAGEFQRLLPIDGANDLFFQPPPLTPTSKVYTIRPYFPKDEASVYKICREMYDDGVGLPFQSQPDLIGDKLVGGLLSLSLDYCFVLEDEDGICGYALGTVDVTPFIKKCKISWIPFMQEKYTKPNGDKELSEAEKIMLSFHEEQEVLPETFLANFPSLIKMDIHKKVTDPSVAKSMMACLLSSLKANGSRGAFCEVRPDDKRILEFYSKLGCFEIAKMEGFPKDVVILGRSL", "UniProt Q9BY41, whole entry": "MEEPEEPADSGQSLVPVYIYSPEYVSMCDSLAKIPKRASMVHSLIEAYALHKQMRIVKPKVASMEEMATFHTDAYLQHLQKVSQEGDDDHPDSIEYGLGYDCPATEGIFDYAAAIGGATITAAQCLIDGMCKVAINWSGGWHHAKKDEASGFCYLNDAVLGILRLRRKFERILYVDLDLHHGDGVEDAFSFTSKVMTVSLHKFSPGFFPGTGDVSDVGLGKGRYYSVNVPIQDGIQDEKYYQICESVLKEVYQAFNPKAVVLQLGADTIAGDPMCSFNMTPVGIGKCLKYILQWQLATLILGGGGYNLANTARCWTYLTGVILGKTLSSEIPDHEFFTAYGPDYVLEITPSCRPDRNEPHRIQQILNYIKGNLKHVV", "UniProt P30419, whole entry": "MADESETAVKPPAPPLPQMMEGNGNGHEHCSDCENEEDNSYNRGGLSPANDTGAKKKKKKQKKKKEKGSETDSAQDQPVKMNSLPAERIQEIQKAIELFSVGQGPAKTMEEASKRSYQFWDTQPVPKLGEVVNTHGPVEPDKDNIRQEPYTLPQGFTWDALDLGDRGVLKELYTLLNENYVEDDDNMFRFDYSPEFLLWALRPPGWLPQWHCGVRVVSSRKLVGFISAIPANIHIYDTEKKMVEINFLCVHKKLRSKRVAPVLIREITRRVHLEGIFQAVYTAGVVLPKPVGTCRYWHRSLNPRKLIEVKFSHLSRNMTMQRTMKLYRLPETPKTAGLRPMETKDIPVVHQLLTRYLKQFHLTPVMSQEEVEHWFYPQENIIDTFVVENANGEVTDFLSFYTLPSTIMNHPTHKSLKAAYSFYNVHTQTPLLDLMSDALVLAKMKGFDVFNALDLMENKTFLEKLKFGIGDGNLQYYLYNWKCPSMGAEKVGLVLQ"}, "data": "Results of several laboratories", "action": "substrate", "MIPEP": "Mitochondrial intermediate peptidase (MIPEP, Homo sapiens, UniProt Q99797)", "MALT1": "Mucosa-associated lymphoid tissue lymphoma translocation protein 1 (MALT1, Homo sapiens, UniProt Q9UDY8)", "note": "Lines come from different studies, so protocols differ. ± marks the error that the study gave."}
{"Structure (SMILES)": "CC[C@H](C)[C@H](NC(=O)c1ccccc1N)C(=O)N[C@@H](CCCCN)C(=O)N[C@@H](CCC(N)=O)C(=O)N[C@@H](CO)C(=O)N[C@@H](CO)C(=O)N[C@@H](CC(C)C)C(=O)N[C@@H](CC(C)C)C(=O)N[C@@H](CCCCNc1ccc([N+](=O)[O-])cc1[N+](=O)[O-])C(N)=O", "target": "MIPEP", "test": "FRET peptide hydrolysis", "Km [µM]": 1.1}
{"Structure (SMILES)": "CC(=O)N[C@@H](Cc1c[nH]cn1)C(=O)N[C@H](C(=O)NCC(=O)N[C@@H](Cc1ccccc1)C(=O)N[C@@H](CC(C)C)C(=O)N[C@H](C(=O)N[C@@H](CCC(=O)O)C(=O)N[C@@H](Cc1cc(=O)oc2cc(OP(=O)(O)O)ccc12)C(=O)N[C@H](C(=O)N[C@@H](C)C(=O)N[C@H](C(=O)N[C@@H](CCCNC(=N)N)C(=O)N[C@@H](Cc1c[nH]c2ccccc12)C(N)=O)[C@@H](C)O)C(C)C)[C@@H](C)O)[C@@H](C)O", "target": "DUSP3 (Homo sapiens, UniProt P51452)", "test": "peptide hydrolysis", "setting": "pH 6.0, 37 °C, 250 nM enzyme, together with: ERK activation-loop peptide", "Km [µM]": 47.6}
{"Structure (SMILES)": "CC(=O)N[C@@H](CC(C)C)C(=O)N[C@H](C(=O)N[C@@H](CO)C(=O)N[C@@H](CCCNC(=N)N)C(=O)Nc1ccc2c(CC(N)=O)cc(=O)oc2c1)C(C)C", "target": "MALT1", "test": "fluorogenic peptide hydrolysis", "setting": "20 min preincubation, pH 7.5, 37 °C, enzyme 399 nM, citrate 0.9 M", "Km [µM]": 15.3}
{"Structure (SMILES)": "CC(=O)N[C@@H](CCC(N)=O)C(=O)N[C@H](C(=O)N[C@@H](C)C(=O)N[C@@H](CCCNC(=N)N)C(=O)N[C@@H](CCCCNC(=O)CCc1ccc(N=Nc2ccc(N(C)C)cc2)cc1)C(=O)N[C@@H](CO)C(=O)N[C@H](C(=O)NCC(=O)NCC(=O)NCCCNC(=S)Nc1ccc2c(c1)C(=O)OC21c2ccc(O)cc2Oc2cc(O)ccc21)[C@@H](C)O)[C@@H](C)O", "target": "SIRT1 (Homo sapiens, UniProt Q96EB6)", "test": "fluorescence kinetics", "setting": "37 °C, 7 nM SIRT1, together with: 500 µM NAD+", "Km [µM]": "0.1 ± 0.014"}
{"Structure (SMILES)": "CC(=O)N[C@@H](CC(C)C)C(=O)N[C@@H](CCCNC(=N)N)C(=O)N[C@@H](CO)C(=O)N[C@@H](CCCNC(=N)N)C(=O)Nc1ccc2c(C)cc(=O)oc2c1", "target": "MALT1", "test": "fluorogenic peptide hydrolysis", "setting": "pH 7.5, catalytic domain, sodium citrate 0.9 M", "Km [µM]": 19.5}
{"Structure (SMILES)": "CSCC[C@H](NC(=O)c1ccccc1N)C(=O)N[C@H](C(=O)N[C@@H](C)C(=O)N[C@@H](C)C(=O)N[C@@H](CC(C)C)C(=O)N[C@@H](CCCCN)C(=O)N[C@H](C(=O)N[C@@H](CCCCNc1ccc([N+](=O)[O-])cc1[N+](=O)[O-])C(N)=O)[C@@H](C)O)[C@@H](C)O", "target": "MIPEP", "test": "FRET peptide hydrolysis", "setting": "multiple cleavage sites", "Km [µM]": 4.2}
{"Structure (SMILES)": "CC(=O)NCCCC[C@H](NC(C)=O)C(=O)N[C@@H](Cc1c[nH]c2ccccc12)C(N)=O", "target": "HDAC6 (Homo sapiens, UniProt Q9UBN7)", "setting": "25 °C", "Km [µM]": "70 ± 30"}
{"Structure (SMILES)": "CC(=O)N[C@H]1[C@H](OC[C@H](NC(=O)[C@H](Cc2ccc(O)cc2)NC(=O)[C@@H]2CCCN2C(C)=O)C(=O)N[C@@H](CO)C(=O)N[C@@H](C)C(N)=O)O[C@H](CO)[C@@H](O)[C@@H]1O", "target": "Protein O-GlcNAcase (OGA, Homo sapiens, UniProt O60502)", "setting": "pH 7.5, 37 °C, together with: 4MU-GlcNAc 200 µM competition", "Km [µM]": "6300 ± 500"}
{"Structure (SMILES)": "CC(=O)NCCCC[C@H](NC(=O)CNC(=O)[C@H](CCCNC(=N)N)NC(C)=O)C(N)=O", "target": "HDAC8 (Homo sapiens, UniProt Q9BY41)", "setting": "25 °C", "Km [µM]": "> 5000"}
{"Structure (SMILES)": "CC(C)C[C@H](NC(=O)CN)C(=O)N[C@@H](CC(C)C)C(=O)N[C@@H](CC(=O)O)C(=O)N[C@@H](CCCNC(=N)N)C(=O)N[C@@H](CC(C)C)C(=O)N[C@@H](CO)C(=O)N[C@H](C(=O)O)C(C)C", "target": "NMT1 (Homo sapiens, UniProt P30419)", "Km [µM]": "< 0.1"}
{"note": "A few entries again:"}
{"Structure (SMILES)": "CC(=O)N[C@@H](Cc1c[nH]cn1)C(=O)N[C@H](C(=O)NCC(=O)N[C@@H](Cc1ccccc1)C(=O)N[C@@H](CC(C)C)C(=O)N[C@H](C(=O)N[C@@H](CCC(=O)O)C(=O)N[C@@H](Cc1cc(=O)oc2cc(OP(=O)(O)O)ccc12)C(=O)N[C@H](C(=O)N[C@@H](C)C(=O)N[C@H](C(=O)N[C@@H](CCCNC(=N)N)C(=O)N[C@@H](Cc1c[nH]c2ccccc12)C(N)=O)[C@@H](C)O)C(C)C)[C@@H](C)O)[C@@H](C)O", "target": "DUSP3 (Homo sapiens, UniProt P51452)", "test": "peptide hydrolysis", "setting": "pH 6.0, 37 °C, 250 nM enzyme, together with: ERK activation-loop peptide", "Km [µM]": 47.6}
